Experimental data pooled from the literature.
Several values in a cell are separate wells, animals, samples, runs or records. ± marks the error that the study gave. ≈ marks a conversion by molar mass, not a printed value.

NC(=O)c1ncn(C2OC(CO)C(O)C2O)c1C(N)=O (stereo not drawn) — IC90 (Mammarenavirus lassaense; viral replication; Vero; 48 h): > 50 µg/mL
O=C(C=Cc1ccc(O)c(O)c1)OC1CC(O)(C(=O)O)CC(OC(=O)C=Cc2ccc(O)c(O)c2)C1O (stereo not drawn) — inhibition (Severe acute respiratory syndrome coronavirus 2; cytopathic effect; Vero C1008; 1.562 µM): 0%
Cc1ccc(NS(=O)(=O)c2c(C(=O)N3CCCCCC3)c(C)n(C)c2C)c(Cl)c1 — relative infection (Monkeypox virus; qPCR; Vero C1008, wild type; 0.8 µM, 72 h; baseline: untreated): 39.8% and 22.7% and 43.5%
CN[C@@H]1[C@H](O)[C@H](NC)[C@H]2O[C@]3(O)[C@H](O[C@@H]2[C@H]1O)O[C@H](C)C[C@@]3(O)CNCc1ccccc1 — inhibition zone diameter (Legionella pneumophila; ATCC 33153; 40 µg per disc, 48 h): 40 mm
O=[N+]([O-])c1ccc(-n2nc(-c3ccccc3)cc2-c2ccc(F)cc2)c([N+](=O)[O-])c1 — viral particle reduction (Japanese encephalitis virus; plaque; Neuro2a, SA14-14-2; 15 µM, 72 h, co-treatment): ~55%
[O-][N+]1=C(c2ccccc2)C2=NCCN2c2ccccc21 — MIC (Clostridium perfringens): 0.5 to 1 µg/mL (≈ 1.9 to 3.8 µM)
CN1CCN(C(=O)N[C@@H](Cc2ccccc2)C(=O)N[C@H](/C=C/S(=O)(=O)c2ccccc2)CCc2ccccc2)CC1 — IC50 (Severe acute respiratory syndrome coronavirus; viral replication; Urbani and Toronto-2): 50 to 520 nM
COC(=O)c1ncn(CCOC(C)=O)c1C(=O)OC — IC50 (Mammarenavirus lassaense; viral replication, inhibitor; Vero; 48 h): 21 µg/mL
CC(C)CC(C(=O)N1CC2(CC1C#N)C(=O)Nc1ccccc12)N(C)C(=O)c1cc2c(F)cc(F)c(F)c2[nH]1 (stereo not drawn) — inhibition (SARS-CoV-2; viral replication, infectious virus; Vero E6; 10 µM): 99.6%
COC(=O)c1ncn(CCOP(=O)(O)O)c1C(=O)OC — IC90 (Mammarenavirus lassaense; viral replication; Vero; 48 h): > 50 µg/mL
Nc1nc(Nc2ccc(Cl)cc2)nn1S(=O)(=O)c1ccc2ccccc2c1 — EC50 (Powassan virus; viral replication; BHK-21): > 7900 nM
Cc1ccc(N2CC(N3CCC(C)(O)CC3)C2)cc1C(=O)NC1(c2ccc3c4c(cccc24)CC3)CC1 — inhibition (SARS-CoV-2; viral replication; Vero C1008, XBB.1; 0.1543 µM): 40%
CC[C@H](C)[C@H](NC(C)=O)C(=O)N[C@@H](CO)C(=O)NCC(=O)N[C@H](C(=O)N[C@@H](CC(N)=O)C(=O)N[C@@H](C)C(=O)N[C@@H](CO)C(=O)N[C@H](C(=O)N[C@H](C(=O)N[C@@H](CC(N)=O)C(=O)N[C@H](C(=O)N[C@@H](CCC(N)=O)C(=O)N[C@@H](CCCCN)C(=O)N[C@@H](CCC(=O)O)C(=O)N[C@H](C(=O)N[C@@H](CCC(=O)O)C(=O)N[C@@H](CCCNC(=N)N)C(=O)N[C@@H](CC(C)C)C(=O)N[C@@H](CC(N)=O)C(=O)N[C@@H](CCCCN)C(=O)N[C@H](C(=O)N[C@@H](C)C(=O)N[C@@H](CCCCN)C(=O)N[C@@H](CCC(=O)O)C(=O)N[C@@H](CC(C)C)C(=O)N[C@@H](CC(N)=O)C(=O)N[C@@H](CCCCN)C(=O)N[C@@H](CO)C(=O)N[C@@H](CC(C)C)C(=O)N[C@H](C(=O)N[C@@H](CC(=O)O)C(=O)N[C@@H](CC(C)C)C(=O)N[C@@H](CCC(N)=O)C(=O)N[C@@H](CCC(=O)O)C(=O)NCC(=O)NCC(=O)NCC(=O)N[C@@H](CO)C(=O)NCC(=O)NCC(=O)NCC(=O)N[C@@H](CSSC[C@H](NC(=O)CNC(=O)CNC(=O)CNC(=O)[C@H](CO)NC(=O)CNC(=O)CNC(=O)CNC(=O)[C@H](CCC(=O)O)NC(=O)[C@H](CCC(N)=O)NC(=O)[C@H](CC(C)C)NC(=O)[C@H](CC(=O)O)NC(=O)[C@@H](NC(=O)[C@H](CC(C)C)NC(=O)[C@H](CO)NC(=O)[C@H](CCCCN)NC(=O)[C@H](CC(N)=O)NC(=O)[C@H](CC(C)C)NC(=O)[C@H](CCC(=O)O)NC(=O)[C@H](CCCCN)NC(=O)[C@H](C)NC(=O)[C@@H](NC(=O)[C@H](CCCCN)NC(=O)[C@H](CC(N)=O)NC(=O)[C@H](CC(C)C)NC(=O)[C@H](CCCNC(=N)N)NC(=O)[C@H](CCC(=O)O)NC(=O)[C@@H](NC(=O)[C@H](CCC(=O)O)NC(=O)[C@H](CCCCN)NC(=O)[C@H](CCC(N)=O)NC(=O)[C@@H](NC(=O)[C@H](CC(N)=O)NC(=O)[C@@H](NC(=O)[C@@H](NC(=O)[C@H](CO)NC(=O)[C@H](C)NC(=O)[C@H](CC(N)=O)NC(=O)[C@@H](NC(=O)CNC(=O)[C@H](CO)NC(=O)[C@@H](NC(C)=O)[C@@H](C)CC)[C@@H](C)CC)C(C)C)C(C)C)[C@@H](C)CC)[C@@H](C)CC)C(C)C)[C@@H](C)CC)C(N)=O)C(N)=O)[C@@H](C)CC)C(C)C)[C@@H](C)CC)[C@@H](C)CC)C(C)C)C(C)C)[C@@H](C)CC — fold change IC50 vs corresponding monomer (SARS-CoV-2 Wuhan; viral replication; VeroE6/TMPRSS2 cells; baseline: corresponding monomer): 0.341
Cn1cnc(Cn2c(=O)[nH]/c(=N\c3cc4cn(C)nc4cc3Cl)n(Cc3cc(F)c(F)cc3F)c2=O)n1 — IC50 (Murine coronavirus; viral replication, qPCR; L929; 48 h): 930 nM
CCCCCc1ccc(Oc2ccccc2)c(O)c1 — MIC90 (Francisella tularensis; bacterial growth; LVS): 0.0012 ± 0.0002 µg/mL (≈ 0.00468 µM)
CC[C@H](C)[C@H](NC(=O)[C@H](CCCCN)NC(=O)[C@H](CCCCN)NC(=O)[C@H](CC(C)C)NC(=O)[C@H](Cc1c[nH]c2ccccc12)NC(=O)CN)C(=O)NCC(=O)N[C@@H](CCCCN)C(=O)N[C@@H](CCCCN)C(=O)N[C@H](C(=O)N[C@@H](CCC(=O)O)C(=O)N[C@@H](CCCNC(=N)N)C(=O)N[C@H](C(=O)NCC(=O)N[C@@H](CCC(N)=O)C(=O)N[C@@H](Cc1c[nH]cn1)C(=O)N[C@H](C(=O)N[C@@H](CCCNC(=N)N)C(=O)N[C@@H](CC(=O)O)C(=O)N[C@@H](C)C(=O)N[C@H](C(=O)N[C@H](C(=O)N[C@@H](CCC(N)=O)C(=O)N[C@H](C(=O)N[C@H](C(=O)NCC(=O)N[C@H](C(=O)N[C@@H](C)C(=O)N[C@@H](CCC(N)=O)C(=O)N[C@@H](CCC(N)=O)C(=O)N[C@@H](C)C(=O)N[C@@H](C)C(=O)N[C@@H](CC(N)=O)C(=O)N[C@H](C(=O)N[C@@H](C)C(=O)N[C@@H](C)C(=O)N[C@H](C(=O)N[C@@H](CC(C)C)C(=O)N[C@@H](CCCCN)C(N)=O)[C@@H](C)O)C(C)C)C(C)C)[C@@H](C)CC)[C@@H](C)O)[C@@H](C)CC)[C@@H](C)O)[C@@H](C)O)C(C)C)[C@@H](C)CC — MIC (Pseudomonas aeruginosa; broth microdilution; RKI 93/12, CAMHB with 10% mouse serum; 150 mM NaCl): 512 µg/mL (≈ 122 µM)
O=C(O)c1ncn(COCCOCc2ccccc2)c1C(=O)O — IC50 (Zaire ebolavirus; viral replication, inhibitor; Vero; 72 h): 41 µg/mL
COc1ccc(C2=[N+]([O-])c3ccccc3N3CCN=C23)cc1 — MIC90 (Clostridium perfringens): 1 µg/mL (≈ 3.41 µM)
O=S(=O)(O)c1c2ccccc2c(-c2c3nc(c(-c4c5ccccc5c(S(=O)(=O)O)c5ccccc45)c4ccc([nH]4)c(-c4c5ccccc5c(S(=O)(=O)O)c5ccccc45)c4nc(c(-c5c6ccccc6c(S(=O)(=O)O)c6ccccc56)c5ccc2[nH]5)C=C4)C=C3)c2ccccc12 — virus titre (vaccinia virus; WR; 50 µg/mL, 16 h): 750000 PFU/mL
[O-][N+]1=C(c2ccccc2)C2=NCCCN2c2ncccc21 — MIC50 (Clostridium perfringens; microbial growth): 0.5 µg/mL (≈ 1.8 µM)
CCN1CCC(CN2c3ccccc3Sc3ccccc32)C1 (stereo not drawn) — EC90 (SARS coronavirus; Vero 76, Urbani): 11000 ± 3900 nM

A few entries again:
[O-][N+]1=C(c2ccccc2)C2=NCCCN2c2ncccc21 — MIC50 (Clostridium perfringens; microbial growth): 0.5 µg/mL (≈ 1.8 µM)
CCN1CCC(CN2c3ccccc3Sc3ccccc32)C1 (stereo not drawn) — EC90 (SARS coronavirus; Vero 76, Urbani): 11000 ± 3900 nM
